Results from different studies.
Each line is one published result; not all experiments were run side by side.
UniProt P37136, sequence (whole entry, looked up): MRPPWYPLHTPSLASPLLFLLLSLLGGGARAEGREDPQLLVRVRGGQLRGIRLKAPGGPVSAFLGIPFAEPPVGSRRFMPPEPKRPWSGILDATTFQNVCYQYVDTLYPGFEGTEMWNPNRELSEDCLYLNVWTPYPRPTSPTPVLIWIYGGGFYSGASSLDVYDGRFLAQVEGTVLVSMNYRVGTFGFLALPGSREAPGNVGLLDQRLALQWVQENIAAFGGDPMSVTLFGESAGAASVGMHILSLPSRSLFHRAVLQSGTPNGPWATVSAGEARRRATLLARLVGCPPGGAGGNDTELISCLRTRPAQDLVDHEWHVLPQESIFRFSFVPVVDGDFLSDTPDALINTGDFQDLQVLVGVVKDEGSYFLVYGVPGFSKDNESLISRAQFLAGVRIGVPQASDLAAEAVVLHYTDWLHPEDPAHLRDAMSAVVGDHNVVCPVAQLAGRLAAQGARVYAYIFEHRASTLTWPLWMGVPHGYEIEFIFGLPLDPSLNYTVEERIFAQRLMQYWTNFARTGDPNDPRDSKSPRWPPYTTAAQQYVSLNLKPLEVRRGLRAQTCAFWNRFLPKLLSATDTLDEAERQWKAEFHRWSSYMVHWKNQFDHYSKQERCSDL

`chicoric acid` gave a Tmax of 30 min (UPLC; broiler chicken, plasma; oral gavage, 20 mg/kg).
The AUC(0-12h) of `maraviroc` is reported as 2180 ng·h/mL (black CYP3A5 extensive metabolizers, plasma; 300 mg twice daily).
For `deucravacitinib`, “subjects with nervous system disorders” read 55.6% (multiple ascending dose; healthy human; oral, 12 mg once daily).
`phoxim-oxon` gave an IC50 of 30 nM (Ache (Rattus norvegicus, UniProt P37136); inhibitor; rat, postnatal day 1, rat serum).
For `semaglutide`, “participants with adverse events” read 79.2% (refers to: any adverse event; human, safety analysis set; concentration not given, 32 weeks, run-in).
